Results of several laboratories.
Every numbered part comes from another study and shows a few of its results, in no order. “And” joins repeats or separate records; there may be more than shown.
Sequence of UniProt P23945 (whole entry, looked up): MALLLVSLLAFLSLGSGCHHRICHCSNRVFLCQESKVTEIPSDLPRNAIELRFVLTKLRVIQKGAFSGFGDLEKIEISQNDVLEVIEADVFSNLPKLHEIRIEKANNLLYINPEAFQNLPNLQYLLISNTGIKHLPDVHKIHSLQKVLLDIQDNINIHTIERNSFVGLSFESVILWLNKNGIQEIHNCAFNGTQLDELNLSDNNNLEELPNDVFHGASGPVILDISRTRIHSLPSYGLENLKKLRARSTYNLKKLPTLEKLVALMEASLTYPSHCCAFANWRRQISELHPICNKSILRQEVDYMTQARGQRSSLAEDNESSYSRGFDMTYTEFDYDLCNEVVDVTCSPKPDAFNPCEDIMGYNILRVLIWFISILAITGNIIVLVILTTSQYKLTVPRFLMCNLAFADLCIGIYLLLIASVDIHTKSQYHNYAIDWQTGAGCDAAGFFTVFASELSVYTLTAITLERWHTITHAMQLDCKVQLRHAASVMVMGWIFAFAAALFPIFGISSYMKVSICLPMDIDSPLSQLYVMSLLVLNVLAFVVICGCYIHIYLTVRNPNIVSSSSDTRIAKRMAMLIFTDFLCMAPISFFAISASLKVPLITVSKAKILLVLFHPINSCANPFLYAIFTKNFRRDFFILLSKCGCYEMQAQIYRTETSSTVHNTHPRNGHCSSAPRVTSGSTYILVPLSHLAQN
Sequence of UniProt Q92633 (whole entry, looked up): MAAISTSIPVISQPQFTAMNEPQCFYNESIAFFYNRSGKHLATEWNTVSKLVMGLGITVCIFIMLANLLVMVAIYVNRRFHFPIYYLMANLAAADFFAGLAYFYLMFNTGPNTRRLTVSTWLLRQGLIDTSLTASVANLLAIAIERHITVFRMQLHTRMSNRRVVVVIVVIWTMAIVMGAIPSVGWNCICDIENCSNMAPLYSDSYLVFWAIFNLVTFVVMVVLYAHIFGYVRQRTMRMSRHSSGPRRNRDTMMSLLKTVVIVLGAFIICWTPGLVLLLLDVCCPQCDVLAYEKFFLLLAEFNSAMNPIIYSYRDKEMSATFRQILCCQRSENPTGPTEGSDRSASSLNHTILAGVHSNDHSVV
Sequence of UniProt Q86SQ4 (whole entry, looked up): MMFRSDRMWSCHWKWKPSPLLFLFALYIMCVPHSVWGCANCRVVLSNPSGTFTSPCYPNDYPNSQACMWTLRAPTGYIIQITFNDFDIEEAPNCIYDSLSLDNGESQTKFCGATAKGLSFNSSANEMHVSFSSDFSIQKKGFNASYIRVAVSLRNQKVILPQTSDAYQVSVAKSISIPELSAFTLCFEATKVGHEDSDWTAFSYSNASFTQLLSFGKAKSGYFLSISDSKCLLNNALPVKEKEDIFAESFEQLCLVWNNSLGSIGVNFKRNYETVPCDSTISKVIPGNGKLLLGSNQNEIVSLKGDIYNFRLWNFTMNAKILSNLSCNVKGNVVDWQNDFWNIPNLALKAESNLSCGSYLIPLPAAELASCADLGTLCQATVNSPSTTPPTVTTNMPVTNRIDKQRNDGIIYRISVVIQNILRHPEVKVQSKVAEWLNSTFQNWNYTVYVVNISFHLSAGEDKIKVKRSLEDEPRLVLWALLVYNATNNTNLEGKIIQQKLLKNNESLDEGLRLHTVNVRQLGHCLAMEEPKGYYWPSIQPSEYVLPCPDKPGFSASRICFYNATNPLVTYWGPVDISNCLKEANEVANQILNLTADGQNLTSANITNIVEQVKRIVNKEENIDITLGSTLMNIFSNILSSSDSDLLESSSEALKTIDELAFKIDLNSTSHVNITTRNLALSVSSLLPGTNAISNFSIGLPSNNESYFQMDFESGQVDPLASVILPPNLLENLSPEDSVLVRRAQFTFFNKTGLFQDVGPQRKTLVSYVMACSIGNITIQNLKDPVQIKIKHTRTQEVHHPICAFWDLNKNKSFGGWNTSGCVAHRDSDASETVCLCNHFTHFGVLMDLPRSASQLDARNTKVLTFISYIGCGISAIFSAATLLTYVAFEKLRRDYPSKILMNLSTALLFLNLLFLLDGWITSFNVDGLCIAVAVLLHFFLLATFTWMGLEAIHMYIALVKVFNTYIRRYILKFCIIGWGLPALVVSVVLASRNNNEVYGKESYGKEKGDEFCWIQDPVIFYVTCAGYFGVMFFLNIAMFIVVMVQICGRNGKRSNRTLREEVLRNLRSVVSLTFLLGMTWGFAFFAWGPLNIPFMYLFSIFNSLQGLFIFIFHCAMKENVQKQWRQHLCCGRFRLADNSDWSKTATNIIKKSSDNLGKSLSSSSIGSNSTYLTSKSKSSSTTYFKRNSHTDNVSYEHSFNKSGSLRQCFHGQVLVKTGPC
Sequence of UniProt Q8TDU9 (whole entry, looked up): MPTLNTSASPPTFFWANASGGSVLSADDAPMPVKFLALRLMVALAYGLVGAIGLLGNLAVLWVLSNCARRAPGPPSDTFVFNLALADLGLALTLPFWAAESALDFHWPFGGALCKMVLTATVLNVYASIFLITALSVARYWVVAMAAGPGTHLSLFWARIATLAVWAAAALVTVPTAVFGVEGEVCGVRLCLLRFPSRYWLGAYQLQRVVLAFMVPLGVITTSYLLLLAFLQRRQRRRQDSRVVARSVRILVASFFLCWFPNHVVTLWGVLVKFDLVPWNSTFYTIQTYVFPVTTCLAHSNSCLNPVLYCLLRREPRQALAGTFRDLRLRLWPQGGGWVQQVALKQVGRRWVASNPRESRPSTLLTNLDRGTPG

Study 1 — Structure (SMILES): CCN(c1nc(N)c(C(=O)N=C(N)N)nc1Cl)C(C)C; effect on: β-arrestin recruitment; action: agonist; method: PRESTO-Tango; concentration: 10 µM; reference: untreated
target | fold over basal
GPR119 (Homo sapiens, UniProt Q8TDV5) | 0.78
ADGRG6 (Homo sapiens, UniProt Q86SQ4) | 1.42
GRM4 (Homo sapiens, UniProt Q14833) | 0.96 fold
RXFP4 (Homo sapiens, UniProt Q8TDU9) | 1.43
FSHR (Homo sapiens, UniProt P23945) | 0.64 fold
PTAFR (Homo sapiens, UniProt P25105) | 1.19
NPY1R (Homo sapiens, UniProt P25929) | 0.85
LPAR1 (Homo sapiens, UniProt Q92633) | 0.88

Study 2 — effect on: enzyme activity; action: inhibitor; concentration: 0.5 µM; reference: control
Target: Proto-oncogene tyrosine-protein kinase ROS (ROS1, Homo sapiens, UniProt P08922)
Sequence of UniProt P08922 (whole entry, looked up): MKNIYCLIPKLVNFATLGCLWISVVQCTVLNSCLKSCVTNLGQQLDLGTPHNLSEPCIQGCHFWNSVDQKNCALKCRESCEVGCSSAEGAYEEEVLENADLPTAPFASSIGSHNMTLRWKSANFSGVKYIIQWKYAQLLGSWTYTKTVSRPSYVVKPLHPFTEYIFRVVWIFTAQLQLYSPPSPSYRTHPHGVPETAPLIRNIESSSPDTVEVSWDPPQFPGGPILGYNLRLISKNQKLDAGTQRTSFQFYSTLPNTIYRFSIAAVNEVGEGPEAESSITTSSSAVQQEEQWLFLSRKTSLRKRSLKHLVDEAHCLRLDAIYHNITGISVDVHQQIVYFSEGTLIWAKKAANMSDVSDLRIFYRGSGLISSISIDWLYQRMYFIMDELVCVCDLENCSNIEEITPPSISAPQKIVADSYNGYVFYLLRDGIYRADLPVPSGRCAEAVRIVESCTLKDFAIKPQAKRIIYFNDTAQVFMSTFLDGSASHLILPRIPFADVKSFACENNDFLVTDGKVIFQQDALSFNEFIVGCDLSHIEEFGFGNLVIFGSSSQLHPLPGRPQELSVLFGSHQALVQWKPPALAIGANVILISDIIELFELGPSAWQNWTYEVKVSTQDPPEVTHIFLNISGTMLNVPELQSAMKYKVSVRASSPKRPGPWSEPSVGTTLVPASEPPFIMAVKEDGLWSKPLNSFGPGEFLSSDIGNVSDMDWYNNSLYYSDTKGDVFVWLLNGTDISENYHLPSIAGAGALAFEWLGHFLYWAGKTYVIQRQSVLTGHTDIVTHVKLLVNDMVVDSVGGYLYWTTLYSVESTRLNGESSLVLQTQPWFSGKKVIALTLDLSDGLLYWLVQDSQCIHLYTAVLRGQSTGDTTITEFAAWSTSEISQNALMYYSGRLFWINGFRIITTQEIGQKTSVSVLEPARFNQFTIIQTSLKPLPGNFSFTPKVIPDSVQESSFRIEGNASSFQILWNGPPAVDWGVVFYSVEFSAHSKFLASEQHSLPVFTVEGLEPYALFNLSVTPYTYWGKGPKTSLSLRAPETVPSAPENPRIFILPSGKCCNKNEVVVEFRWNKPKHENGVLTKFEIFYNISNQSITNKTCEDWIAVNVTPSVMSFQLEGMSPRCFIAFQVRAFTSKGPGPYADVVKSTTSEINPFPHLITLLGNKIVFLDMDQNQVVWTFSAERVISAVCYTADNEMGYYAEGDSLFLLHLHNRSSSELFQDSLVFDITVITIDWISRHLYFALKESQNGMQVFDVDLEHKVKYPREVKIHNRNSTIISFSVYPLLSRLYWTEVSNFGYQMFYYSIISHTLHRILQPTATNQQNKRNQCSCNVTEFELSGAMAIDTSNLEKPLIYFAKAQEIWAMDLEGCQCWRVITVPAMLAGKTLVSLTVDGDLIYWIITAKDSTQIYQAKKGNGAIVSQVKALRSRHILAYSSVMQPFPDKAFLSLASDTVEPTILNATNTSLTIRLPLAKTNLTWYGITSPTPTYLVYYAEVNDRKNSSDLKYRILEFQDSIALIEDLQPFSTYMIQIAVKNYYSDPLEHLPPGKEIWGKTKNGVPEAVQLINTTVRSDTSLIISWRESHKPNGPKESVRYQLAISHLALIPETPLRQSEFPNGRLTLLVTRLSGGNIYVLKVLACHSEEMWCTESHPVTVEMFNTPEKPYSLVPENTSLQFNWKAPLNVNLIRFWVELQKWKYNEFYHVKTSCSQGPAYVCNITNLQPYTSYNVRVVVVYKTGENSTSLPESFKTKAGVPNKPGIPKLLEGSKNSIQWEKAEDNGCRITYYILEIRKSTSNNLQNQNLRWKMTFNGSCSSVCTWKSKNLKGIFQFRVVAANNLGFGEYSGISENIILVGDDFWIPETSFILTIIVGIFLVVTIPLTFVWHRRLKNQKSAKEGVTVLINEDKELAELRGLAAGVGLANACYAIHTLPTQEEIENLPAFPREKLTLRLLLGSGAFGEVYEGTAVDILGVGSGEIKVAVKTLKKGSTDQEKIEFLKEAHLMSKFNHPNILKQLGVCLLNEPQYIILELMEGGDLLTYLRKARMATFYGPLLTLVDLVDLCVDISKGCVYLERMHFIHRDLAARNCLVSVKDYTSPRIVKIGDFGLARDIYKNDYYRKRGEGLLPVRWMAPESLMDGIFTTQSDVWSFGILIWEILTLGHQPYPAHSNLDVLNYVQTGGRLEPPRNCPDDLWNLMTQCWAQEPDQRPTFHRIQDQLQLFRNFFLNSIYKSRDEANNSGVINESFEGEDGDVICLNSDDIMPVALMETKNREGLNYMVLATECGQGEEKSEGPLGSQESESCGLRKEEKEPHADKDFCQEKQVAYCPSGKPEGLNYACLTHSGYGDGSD
SMILES | remaining activity
CC(C)n1cnc2c(Nc3cccc(Cl)c3)nc(NCCO)nc21 | 102%
O=Nc1c(-c2c(O)[nH]c3ccccc23)[nH]c2ccccc12 | 65.6%
Nc1nc(Nc2ccc(S(N)(=O)=O)cc2)nn1C(=S)Nc1c(F)cccc1F | 1.68%
N#Cc1cnc2cnc(NCc3cccnc3)cc2c1Nc1ccc(F)c(Cl)c1 | 98.3%
CC(C)N(CCC(=O)c1ccc2ccccc2c1)Cc1ccccc1 | 113%
c1ccc2c(-c3ccncc3)c[nH]c2c1 | 81.6%
O=c1c(-c2ccc(F)cc2)c(-c2ccncc2)[nH]n1-c1ccc(Cl)cc1 | 97.6%
N#CC(c1ccnc(NCCc2cccnc2)n1)c1nc2ccccc2s1 (centres unmarked) | 92.7%
C[C@@H](N)[C@H]1CC[C@H](C(=O)Nc2ccncc2)CC1 | 97.4%
c1cc(-c2cnn3cc(-c4ccc(OCCN5CCCCC5)cc4)cnc23)ccn1 | 93.6%
O=C1c2ccccc2-c2nc3nnnn3nc21 | 91.1%
O=C1NC(=O)/C(=C/c2ccc3c(c2)OC(F)(F)O3)S1 | 88.5%
O=C1Nc2ccc(Br)cc2/C1=C/c1cc2c([nH]1)CCCC2 | 98.6%
N#C/C(=C(/N)SC1C=CC=CC1)c1cccc(C(O)c2ccncc2)c1 (centres unmarked) | 95.2%
O=C(c1cc2cc(O)ccc2[nH]1)c1cc2cc(O)ccc2[nH]1 | 105%
COc1cccc(-c2cc(=O)c3ccccc3o2)c1N | 97.5%
O=C1NC(=O)c2c1c1c3ccccc3[nH]c1c1[nH]c3cc(Br)ccc3c21 | 74.4%
O=c1cc(N2CCOCC2)oc2c(-c3ccccc3)cccc12 | 98.4%
FC(F)(F)c1ccc(/C=C/c2nc(COc3ccc(CCCCn4ccnn4)cc3)co2)cc1 | 93.3%
CCN(CC)CCCCN1c2ccccc2Oc2ccc(Cl)cc21 | 95.3%
c1ccc(-c2n[nH]c3c2oc2ccccc23)cc1 | 106%
CN1CCN(c2ccc3nc(-c4c(N)c5c(F)cccc5[nH]c4=O)[nH]c3c2)CC1 | 95.5%
CCCCc1c(-c2ccc(OC)cc2)[nH]c2nccnc12 | 37.5%
CN(C)S(=O)(=O)c1ccc2c(c1)/C(=C/c1cc3c([nH]1)CCCC3)C(=O)N2 | 83.3%
CCCCc1c(-c2ccc(O)cc2)[nH]c2nccnc12 | 26.3%

Study 3 — organism: Sarcocystis neurona; effect on: parasite growth; concentration: 10 µM
SMILES | inhibition [%]
Oc1c(Cl)cc(Cl)c(Cl)c1Cc1c(O)c(Cl)cc(Cl)c1Cl | 80
OC[C@H]1O[C@@H](n2cnc3c(NC4CCCC4)nc(Cl)nc32)[C@H](O)[C@@H]1O | -23.6
C[C@H]1C[C@H]2[C@@H]3CCC4=CC(=O)C=C[C@]4(C)[C@@]3(Cl)[C@@H](O)C[C@]2(C)[C@@]1(O)C(=O)CO | 3.2
Cc1c2oc3c(C)ccc(C(=O)N[C@@H]4C(=O)N[C@H](C(C)C)C(=O)N5CCC[C@H]5C(=O)N(C)CC(=O)N(C)[C@@H](C(C)C)C(=O)O[C@@H]4C)c3nc-2c(C(=O)N[C@@H]2C(=O)N[C@H](C(C)C)C(=O)N3CCC[C@H]3C(=O)N(C)CC(=O)N(C)[C@@H](C(C)C)C(=O)O[C@@H]2C)c(N)c1=O | 9
CN(C/C=C/C#CC(C)(C)C)Cc1cccc2ccccc12 | -32.9
CC(c1cc2ccccc2s1)N(O)C(N)=O (centres unmarked) | -51.6
COc1ccc(-c2cc(=O)c3c(OC)c(OC)c(OC)c(OC)c3o2)cc1OC | 16.1
C=C1/C(=C\C=C2/CCC[C@]3(C)[C@@H]([C@H](C)/C=C/[C@@H](O)C4CC4)CC[C@@H]23)C[C@@H](O)C[C@@H]1O | -24.1
Cc1ccc(-c2cc(C(F)(F)F)nn2-c2ccc(S(N)(=O)=O)cc2)cc1 | -30.7

Study 4 — action: inhibitor; concentration: 10 µM; reference: control
Target: Diamine acetyltransferase 1 (Homo sapiens, UniProt P21673)
Construct (P21673 1-171): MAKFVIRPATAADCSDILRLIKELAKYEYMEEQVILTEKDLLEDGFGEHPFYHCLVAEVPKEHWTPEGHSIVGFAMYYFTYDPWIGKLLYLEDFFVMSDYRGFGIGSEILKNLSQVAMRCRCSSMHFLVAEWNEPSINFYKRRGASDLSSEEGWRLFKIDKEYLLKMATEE
Structure (SMILES) | remaining activity [%]
C=CCSSSCC=C | 98.4
C=C[C@]1(C)CC[C@@H](C(=C)C)C[C@H]1C(=C)C | 96
CC(C)=C[C@H]1C[C@](C)(O)[C@@H]2[C@H]3CC[C@@H]4[C@@]5(C)CC[C@H](O[C@@H]6OC[C@H](O)[C@H](O[C@@H]7O[C@H](CO)[C@@H](O)[C@H](O)[C@H]7O[C@@H]7OC[C@@H](O)[C@H](O)[C@H]7O)[C@H]6O[C@@H]6O[C@@H](C)[C@H](O)[C@@H](O)[C@H]6O)C(C)(C)[C@@H]5CC[C@@]4(C)[C@@]34CO[C@@]2(C4)O1 | 104
COc1c2ccoc2c(OC[C@H]2OC2(C)C)c2oc(=O)ccc12 | 86.8
OCCc1ccc(O)cc1 | 82.9
CC(=O)c1ccc(C)cc1O | 96.1
OC[C@H]1O[C@H](O)[C@H](O)[C@@H](O)[C@@H]1O | 102
C=CC(C)(C)c1cc(/C=C/C(=O)c2ccc(O)cc2)c(OC)cc1O | 83.4

Study 5 — cell line: normal organoid sample D; method: CellTiter-Glo; species: human; medium: normal-adjacent epithelium; concentration: 1 µM; reference: DMSO
Compound | viability
CC(=O)N1CCC(c2ccc(C(=O)NC3=NCCN3)cc2C(F)(F)F)CC1 | 94.3% and 116%
Cn1cncc1[C@@](O)(COc1ccc(C#N)cc1-c1ccc(OC(F)(F)F)cc1)c1ccc(C#N)cc1 | 109% and 78.4%
CCC(=O)N[C@@H]1CC[C@H](C(=O)N(C)c2ccc(-c3nc4ccccc4o3)cc2)C1 | 82.1% and 96.9%
Cc1nc(C2CCN(C(=O)c3ccc(OC(F)(F)F)cc3N)CC2)c2ncc(N3CCN(C)CC3)cc2n1 | 95.8% and 75.4%
COc1cc(-c2cn(C3CCc4ccccc4N(CC(F)(F)F)C3=O)nn2)ccc1-n1ccc(C)n1 (centres unmarked) | 76.8% and 79%
C[C@H](c1cccc(C#N)c1)n1cc(Cl)cc(C(N)=O)c1=N | 131% and 116%

For quick reference, copied from above (study 2):
SMILES | remaining activity
Nc1nc(Nc2ccc(S(N)(=O)=O)cc2)nn1C(=S)Nc1c(F)cccc1F | 1.68%
N#Cc1cnc2cnc(NCc3cccnc3)cc2c1Nc1ccc(F)c(Cl)c1 | 98.3%
CC(C)N(CCC(=O)c1ccc2ccccc2c1)Cc1ccccc1 | 113%
c1ccc2c(-c3ccncc3)c[nH]c2c1 | 81.6%
O=c1c(-c2ccc(F)cc2)c(-c2ccncc2)[nH]n1-c1ccc(Cl)cc1 | 97.6%
N#CC(c1ccnc(NCCc2cccnc2)n1)c1nc2ccccc2s1 (centres unmarked) | 92.7%
C[C@@H](N)[C@H]1CC[C@H](C(=O)Nc2ccncc2)CC1 | 97.4%
